Measurements gathered from unrelated publications.
A part holds a random share of what one study measured.

Series 1 — technique: protein binding microarray; molecule type: double-stranded DNA, one strand shown; medium: in vitro; concentration: not given; relative to: not given; direction: higher = stronger binding; quantity: E-score
Target: Histone acetyltransferase KAT6A, both winged helices, GST fusion (KAT6A, Homo sapiens, UniProt Q92794, residues 1-181)
Setting: 8-mer, flanks averaged, mean of 2 arrays, mostly near background
Construct (chain): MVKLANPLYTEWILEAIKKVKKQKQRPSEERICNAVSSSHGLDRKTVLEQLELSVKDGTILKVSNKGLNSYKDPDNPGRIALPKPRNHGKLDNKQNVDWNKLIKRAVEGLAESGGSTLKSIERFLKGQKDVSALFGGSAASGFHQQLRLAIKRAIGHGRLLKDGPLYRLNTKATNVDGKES
Strand = ACAGAGAT; result = -0.125
Strand = CGCGAAGA; result = 0.146
Strand = CCTCCCTC; result = -0.201
Strand = CCATCCCA; result = -0.257
Strand = ACCCCGAT; result = 0.0788
Strand = AATACGGC; result = 0.212
Strand = TCCAAGGA; result = -0.0599
Strand = AATATTCA; result = 0.0377
Strand = AAATATAA; result = -0.102
Strand = CTGCGAAC; result = -0.0495
Strand = ATCAAGCC; result = 0.0167
Strand = CGGAGAAA; result = 0.203
Strand = GAATTTAC; result = 0.0097
Strand = TTACGCAA; result = 0.122
Strand = CGGAGACC; result = 0.225
Strand = GACCATCC; result = -0.00709
Strand = CAGTAAAC; result = 0.0632
Strand = CGACCTGA; result = 0.000335
Strand = ATATATAA; result = -0.0857
Strand = AGGTCCGG; result = -0.0136
Strand = ACTGGACC; result = 0.0445
Strand = ATCGGTCG; result = 0.118
Strand = CGTACTCA; result = 0.00167
Strand = CGGTGGTC; result = 0.119
Strand = ATAGTCCA; result = -0.182

Series 2 — technique: RNA Bind-n-Seq; molecule type: RNA; medium: in vitro; concentration: 365 nM; relative to: no-protein control; direction: higher = stronger binding; quantity: RBNS enrichment (R)
Target: RNA binding protein fox-1 homolog 2, RRM domain, GST-SBP tag (RBFOX2, Homo sapiens, UniProt O43251-10, residues 100-194)
Setting: natural RNA segment, single round, ends assumed
Constant ends, left off below: GGGAGUUCUACAGUCCGACGAUC … UGGAAUUCUCGGGUGCCAA
Target sequence (chain): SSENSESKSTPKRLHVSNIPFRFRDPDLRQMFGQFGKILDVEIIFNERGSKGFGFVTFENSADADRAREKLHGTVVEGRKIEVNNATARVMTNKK
Strand = AGGGGAGAGUCCUCAUCUGCUGGCAUUUUGUGGGGUGUUAGUGCCAAACUUGAAUAGGGGCUGGGGUGCUGUCUUCCACUGACACCCAAAUCCAGAAUCCCUGGUCUUGA; result = 0.858
Strand = UUAAAGUUGAUUGUUCAGCUGGAGCCCAGAGAAUUUAAUUACUGUUUUUUUCUUUGUACCUGAUGUGAAUUCUAGCAACCUUUGUUAGGAAAAAGCACAGCCUCGAAUGG; result = 0.593
Strand = ACUUUGGAAGCUUAACUUCCCACCUAUCUGGGCCUUACUGGUUUACUUGUGGUUUUCCAUAGUUUUCCAUAAUUACAUUCAUCUUCUUUCUUUGACUAGAAUCACAACCA; result = 0.309
Strand = GGGUUUCCAGCCAGGCCUCGGGGUCAUCUUUUCACCAGGAGCAAACCCAAGUCUUAGUUGCUACAAGAAAAUCCCCUGGAAGUACUGGGGGCCAGGUUCCCCAGACAGCA; result = 1.92
Strand = UUGCUUUAACCUUUGGUUACUUUUAUUCUGUUAAACAGAAUUGAAGAAAGAGUAUUAUACCAGAGUGUAGUAGGCUAGGGUGAUUGUAAGAACUCUGUAAUAGAAUGUCA; result = 1.41
Strand = GAGAAGAGCCCUGGUCAGUGGCCUUGGAUUGUCACUUCUUUCAGGAUAAAGAUCCCUUGGGGGGGGGGGAGUUGGAUGUUUGACUACUAGGAGAUACUAGAGGCUCAGAC; result = 0.714
Strand = UGUAAACUAAAACAAAUUGUGCAUUCCUUCCGGGGCCAUCGUCUUUGUUUUCUUUUUUGUCUUGAAUGAAUUUUAAAAGGAAAUAUAUAAUAAAAAUGUUAACCAGAAGG; result = 0.581
Strand = UCGCCUGCGUUCUUUCUCCUUCUGGUGCUACAGCUCUGAGGGCCUUCACCUUUCUGUCUGAAAUACAACUGUGGCUUUUGCAGUAGAAGACUAUGUUGGUGGUUUCAUUG; result = 0.284
Strand = CUCUUAAAUAUCUCGAUGUAUUUAAUGCCUUGUUUUCUCUCCUGCCGCAGGAUAAAGAAAAUGAUAAACCCACAAAGUGCAUAUUUCAAAUAGCAUAUAUCUGAAAUCGU; result = 0.331
Strand = CUCUCAUUCUCCCAAGGGUUGCAUUAAGGAAGUUGGAGGGAUGCUAUAUGGGGACUGGAUCCCAGUAAGGCUCACAAGGCUAAGGGGAACUUAAGUAUGGGAUACAGCAC; result = 1.28
Strand = AUUGAUUAUUACUGGCAAAAACGGCCAGGUACAACACCUUUUUCAUACAAGGCCCAGGAGGCUUAGUCCAGUCUGUGCUCCUGGGCUACAAGGACCCAGCCUGAGAUGGU; result = 0.567
Strand = ACUAGGAAUCCUCCAACCAGGCUCCUGUGAUAGAGUUCUUUUAAGCCCAAGAUUUUUUAUUUGAGGGUUUUUUGUUUUUUAAAAAAAAAUUGAACAAAGACUACUAAUGA; result = 0.454

Series 3 — technique: protein-binding microarray; molecule type: double-stranded DNA, one strand shown; medium: in vitro; concentration: 250 nM; setting: 60-bp whole probe; with: salmon DNA 0.4 mg/ml; relative to: random background probes; direction: higher = stronger binding; quantity: log fluorescence; constant ends, left off below: GCCTAGCAC … GTCTTGATTCGCTTGACGCTGCTG
Target: Interferon regulatory factor 5, full length, phosphomimetic (IRF5, Homo sapiens, UniProt Q13568-2, residues 1-514, K96S/S451D/S453D/S456D/S462D)
Strand = TCATGTCTGGGTATTTTACTGTGCTAG; result = 0.0525 z-score
Strand = TCAAAGTTCTTTTTTTCACTGTGCTAG; result = 1.35 z-score
Strand = GACGGTATCCGACTGGGGACGTGCTAG; result = -0.257 z-score
Strand = TTAGGTATCGGTCTCGGCTAGTGCTAG; result = 6.48 z-score
Strand = GATGGGCTACCTCTCTTAGAGTGCTAG; result = -0.481 z-score
Strand = TTAGATATCAGTCTCGATTGGTGCTAG; result = 1.87 z-score
Strand = TCATATATGACAATGATACTGTGCTAG; result = 0.675 z-score
Strand = TTAGAACGGGGGTATCGATTAGTGCTA; result = 3.66 z-score
Strand = TCATTTCTCAGTTTATTACTGTGCTAG; result = 1.26 z-score
Strand = CTCTCATTCCAATTCTTTTTGTGCTAG; result = 0.897 z-score
Strand = TCATATGTGACCTTTTTAACTGTGCTA; result = 0.309 z-score
Strand = GACGGTTTCCTGATCCTGACGTGCTAG; result = 0.111 z-score
Strand = TCATTTATCAAATGTGGGACTGTGCTA; result = 0.401 z-score
Strand = TTAGGTATTGGGTATCGGTTAGTGCTA; result = 4.03 z-score
Strand = TTAGGACTGGACTATCGGTGAGTGCTA; result = 2.72 z-score
Strand = TTAGGTTTCTACTTTCGGTTAGTGCTA; result = 10.5 z-score
Strand = GACGGTATGGGGTTTCGGGACGTGCTA; result = 1.22 z-score

Series 4 — technique: RNA Bind-n-Seq; molecule type: RNA; medium: in vitro; concentration: 200 nM; setting: whole 134-nt RNA, ends assumed; with: 150 mM KCl; relative to: input library; direction: higher = stronger binding; quantity: log2 enrichment
Target: Ras GTPase-activating protein-binding protein 1, full length (G3BP1, Homo sapiens, UniProt Q13283)
UniProt Q13283, sequence (whole entry, looked up): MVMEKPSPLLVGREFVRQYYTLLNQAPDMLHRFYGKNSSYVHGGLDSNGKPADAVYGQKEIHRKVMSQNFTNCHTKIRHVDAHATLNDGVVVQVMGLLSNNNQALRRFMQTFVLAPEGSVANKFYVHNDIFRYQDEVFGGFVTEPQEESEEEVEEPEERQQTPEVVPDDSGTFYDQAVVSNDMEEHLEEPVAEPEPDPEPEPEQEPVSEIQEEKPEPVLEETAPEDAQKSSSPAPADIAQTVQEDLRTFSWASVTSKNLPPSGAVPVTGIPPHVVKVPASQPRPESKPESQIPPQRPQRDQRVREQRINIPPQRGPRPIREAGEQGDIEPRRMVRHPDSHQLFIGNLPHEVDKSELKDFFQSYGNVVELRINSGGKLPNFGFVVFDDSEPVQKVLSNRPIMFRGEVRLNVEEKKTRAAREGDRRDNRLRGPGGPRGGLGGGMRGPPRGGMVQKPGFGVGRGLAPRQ
Constant ends, left off below: GGGAGUUCUACAGUCCGACGAUC … UGGAAUUCUCGGGUGUCAAGG
Strand = UUAAGGAAGGACACUGAGUCAUGCACAAGUCCUUGCCUUCUUGGUGCCCCUCGGAAAGCACAAGACCCCUCCUCUGCUGGGUGUGAUCAA; result = 0.345
Strand = AGUCCUGUGCUACACAUCGUAUGUACCGAAUCGGGGUUUUGGGGUUUUGGGUUUUGGAAAGUAUUAUGUUACGCCGUUCGGAUCUGCACU; result = -0.388
Strand = CCUCAAGUCCUGUGCUACACAUCGUAUGUACCGAAUCGGAAAGGUGGUUUGGAAAGUAUUAUGUUACGCCGUUCGGAUCUGCACUUCCAG; result = -0.529
Strand = UGGCCCUGGUGGCAUGCGGGGAGGAAGAGGUGGCCUCAUGGAUCGUGGUGGUCCCGGUGGAAUCUUCAGAGGUGGCCGUGGUGGAGACAG; result = 0.00878
Strand = CUCAAGUCCUGUGCUACACAUCGUAUGUACCGAAUCGGGAAGGAAGGGGAAGGAAAGUAUUAUGUUACGCCGUUCGGAUCUGCACUUCCA; result = -0.192
Strand = ACCAUGCAGGUGGGCAUCUUUGGGAAGUGGGGCAAGGGGGGGAUAGGGAAAAGGGUAACACUUUGGGAACAGGUGGUCCCAGGUCGUUUC; result = 0.972
Strand = ACCAUGCAGGUGGGCAUCUUUGGGAAGUGGGGCAAGGGGGGGAUAGGGAGGGGGGUAACACGUUGGGAACAGGUGGUCCCAGGUCGUUUC; result = 1.46
Strand = UCCUGUGCUACACAUCGUAUGUACCGAAUCGGGUUUUUUGGGGUUUUUUGGGUUUUUUGGAAAGUAUUAUGUUACGCCGUUCGGAUCUGC; result = -0.0627
Strand = AGUCCUGUGCUACACAUCGUAUGUACCGAAUCAAAUUUAAAUUUUUAAACCCCCAAAAAAGUAUUAUGUUACGCCGUUCGGAUCUGCACU; result = -0.388
Strand = UUCGUUUUUUUCCUUAGUCUGAAGUUGCAGCCGGAGUGAAGAAGAGCGGACCGCUGCCCAGUGCUGAGGUAGAGUGUCGGAUCUGUUUUC; result = -1.89
Strand = UAACUUUAGAGGAGUAUCUGAUGGAUAUGGCAGUGGACGUGGAUUUGGGGAUGGCUAUAAUGGGUAUGGAGGAGGACCUGGAGGUGGCAA; result = 0.49
Strand = ACCAUGCAGGUGGGCAUCUUUGGGAAGUGGGGCAAGGGGGGUAUAGGGAGGGGGGUAACACUUUGGGAACAGGUGGUCCCAGGUCGUUUC; result = 0.863
Strand = CAAGUCCUGUGCUACACAUCGUAUGUACCGAAUCGGAAAGGGAAAGGGAAAGGGGAAAGUAUUAUGUUACGCCGUUCGGAUCUGCACUUC; result = -0.246
Strand = CAAGUCCUGUGCUACACAUCGUAUGUACCGAAUCGGUUUGGGGUUUGGGUUUGGGGAAAGUAUUAUGUUACGCCGUUCGGAUCUGCACUU; result = -0.291

Excerpt of the above (series 4):
Strand = CCUCAAGUCCUGUGCUACACAUCGUAUGUACCGAAUCGGAAAGGUGGUUUGGAAAGUAUUAUGUUACGCCGUUCGGAUCUGCACUUCCAG; result = -0.529
Strand = UGGCCCUGGUGGCAUGCGGGGAGGAAGAGGUGGCCUCAUGGAUCGUGGUGGUCCCGGUGGAAUCUUCAGAGGUGGCCGUGGUGGAGACAG; result = 0.00878
Strand = CUCAAGUCCUGUGCUACACAUCGUAUGUACCGAAUCGGGAAGGAAGGGGAAGGAAAGUAUUAUGUUACGCCGUUCGGAUCUGCACUUCCA; result = -0.192
Strand = ACCAUGCAGGUGGGCAUCUUUGGGAAGUGGGGCAAGGGGGGGAUAGGGAAAAGGGUAACACUUUGGGAACAGGUGGUCCCAGGUCGUUUC; result = 0.972
Strand = ACCAUGCAGGUGGGCAUCUUUGGGAAGUGGGGCAAGGGGGGGAUAGGGAGGGGGGUAACACGUUGGGAACAGGUGGUCCCAGGUCGUUUC; result = 1.46
